# Measurements from different studies.
# Parts stem from different laboratories: compare values within a part only. Positions count from the first letter of the parent shown.

# Study 1 — technique: RNA Bind-n-Seq; form: RNA; medium: in vitro; concentration: 365 nM; reference: no-protein control; reading: higher = stronger binding
# Target: RNA binding protein fox-1 homolog 2, RRM domain, GST-SBP tag (RBFOX2, Homo sapiens, UniProt O43251-10, residues 100-194)
# Notes: natural RNA segment, single round, ends assumed
# Target sequence (chain): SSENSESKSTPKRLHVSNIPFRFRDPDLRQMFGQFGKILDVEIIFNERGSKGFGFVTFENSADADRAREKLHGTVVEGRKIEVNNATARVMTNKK
Sequence,RBNS enrichment (R)
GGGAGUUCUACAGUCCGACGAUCUUUCAGUAGUUUGAUCAGUUGAAGGCUAGAAGUGUGAAGUGCAGAUGAGUGUGUGUUCUUCCCCAAGGUCCCCCCACAGCUCCAGGACACCGCUGUCCUGGCAUUUGUGGUGGAAUUCUCGGGUGCCAA,0.664
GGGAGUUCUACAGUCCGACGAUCGUAUAGGAGACUGACGGGGAGCAGAAAGGUCCUGACUCCCUCCCUCCCUGUCACCCUGGACCCGUCCAGGCCAGCGCACCUUCUUUCUUACUAGUCUGUUUUACUGGCUGUGGAAUUCUCGGGUGCCAA,0.358
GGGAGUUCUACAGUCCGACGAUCUGGCUGCUCAACACACUCCUCCCCUCUCUCCUUUAAGCUGUGUCCAGUGAAAGCUGUCCUUCCUGUAUUCUGUUCUCUGGUAAUGUAAUAAGCAUGAUGGUGCCUUCUAUUGGAAUUCUCGGGUGCCAA,11.1
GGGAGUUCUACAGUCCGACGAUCGUCUUGAACUCCCAACCUCAAGUGAUCUGCCCGCCUCGGCCUCCCAACGUGCUGGGAUUACAGGUGUGAGCCACUACGCCCCGGCCCAACUGGAUGGUUUUUGAUUGAAGUGGAAUUCUCGGGUGCCAA,0.345
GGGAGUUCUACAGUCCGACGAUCUCUCCUGUGGAAGGGUCCCGGAACAUAUGCAUGGCGUCUGCUCGCGGCAGGUGGCAGGUGGUGUUGGGGAUGGUCCUGGAGGGGAUGGCCUGGGCAUACGCCGCCUCCAGUGGAAUUCUCGGGUGCCAA,2.33
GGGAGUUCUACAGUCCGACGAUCCCAUUACUGCAUUGUCAAAUUCCUACUGACGACAUUAUAACUGUACGGGAGCUUAACUUUAUAAGGAAAUGUAUUUUGACACUGAUAUCUUAUUAAAGUAUUCUGAUCCUUGGAAUUCUCGGGUGCCAA,0.412
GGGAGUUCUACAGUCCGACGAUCUCUGAUGAAAUCUCUGAAAAAAAAUAAUAAUUUCACACCAUGGCUGCCCUAAAAGGAUCAUUUUAGUUUCUUUGAUUAACUUUCUCAGAACAGACCUCUCCAUUAUUCAUUGGAAUUCUCGGGUGCCAA,0.471
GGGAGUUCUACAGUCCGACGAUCGAUAGGUAGAUGUGAGUAAAAAGAACAGGAAAAAAUUGCUUCUUUUAUUGGUUUCCAAAGAAACAAACCAAACCAACCAGCUCUUGGAUGUGAAGAUAAAAUAGUGCUUUUGGAAUUCUCGGGUGCCAA,1.07
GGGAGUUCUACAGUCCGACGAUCGCAAGGAUCAGAGCCAGACACCAGGAGUCACAGGCCCCACCCAGGAAGGGCAUUCAGGGCCCCUGGGCACCGCUUCUGUUGAAGCAGGGGCUUCUGGGCCCCUGGGUAUCUGGAAUUCUCGGGUGCCAA,0.323
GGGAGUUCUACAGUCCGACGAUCUUUAUAAGUGCAAUUUAAUUUGUAAAUAGAGUUUGAAUCAAAGUAUCACAAAAUACUGCUUCAAGAUUUAAUUUUAAAUCUGCUAAUUUAAGGGAUAUUGGGAAAAGUUUUGGAAUUCUCGGGUGCCAA,0.455
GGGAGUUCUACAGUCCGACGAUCUUUUUUGAUUGUGUUUCGUAAGAGACAACAUGGCCUCCUAAGGUGCAAUCCUGCCGCUAUAGUGAGCUAAUGUCCUGAAUCCAAAGGCUUCAGAAAAUUGCUUUUGCCUUUGGAAUUCUCGGGUGCCAA,0.382
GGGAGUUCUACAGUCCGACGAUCAACGAAAUAACCUUUAUUGAAAUAAAGAUACUAUGCAAGAAAAUGUACAGUUGUCGAAGUGGAGAAAAUGAGGAUAUAUUCUUGCAGACGAGCUAUAGGUCAUACAUGAAUGGAAUUCUCGGGUGCCAA,0.553

# Study 2 — target: CCND2, cyclin fold, Cln2 fusion (human); technique: yeast growth competition, sequencing; medium: yeast; notes: strong parent motif; reference: not given; reading: higher = stronger binding
# Starting sequence: INSM1 docking peptide (human); PKAIRKLHFEDEV
Change,normalised enrichment score
K2Q,1.68
K6N,1.17
H8I,3.32
I4E,0.369
K2T,2.84
K6Y,1.4
K2A,1.41
E12R,1.37
D11R,1.45
E10M,1.42
R5S,0.472
L7M,0.546
L7Q,-0.207
R5A,0.326
D11W,1.38
L7A,-0.0822
E10V,1.26
H8R,1.67
I4N,0.683
K6L,0.915
I4P,0.479

# Study 3 — technique: DHFR PCA, deep sequencing; medium: yeast; with: (+)-ABA 0.39 µM; reference: wild-type fitted maximum; reading: higher = stronger binding
# Target: ABI1, truncated, D143A, DHFR fusion (Arabidopsis thaliana)
# Notes: methotrexate growth selection, single substitutions
# Starting sequence: PYL1, truncated, DHFR fusion (Arabidopsis thaliana); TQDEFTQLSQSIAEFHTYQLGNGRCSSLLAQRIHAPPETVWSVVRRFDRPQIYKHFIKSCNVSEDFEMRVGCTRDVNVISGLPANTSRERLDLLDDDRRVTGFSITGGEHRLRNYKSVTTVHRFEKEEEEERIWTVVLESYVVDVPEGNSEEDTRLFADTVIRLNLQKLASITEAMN; partner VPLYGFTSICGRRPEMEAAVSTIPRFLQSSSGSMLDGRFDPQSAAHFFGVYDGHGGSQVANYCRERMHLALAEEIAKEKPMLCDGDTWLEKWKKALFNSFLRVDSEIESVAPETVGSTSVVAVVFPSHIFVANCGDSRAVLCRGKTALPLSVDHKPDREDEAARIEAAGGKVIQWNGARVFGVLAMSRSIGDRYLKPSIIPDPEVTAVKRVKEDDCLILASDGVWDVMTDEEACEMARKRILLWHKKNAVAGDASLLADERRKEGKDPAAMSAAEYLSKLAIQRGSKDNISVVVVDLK
Change,relative binding score [%]
S87Y,50
L82Q,11.1
R99W,80.8
N149S,61.4
I105M,3.8
L20E,49.9
R88I,57.8
G148V,-6.17
L169V,-5.72
L8P,-1.08
S87D,1.21
L112M,8.68
S27G,59.4
Q7F,44.9
G107I,-7.44

# Further values, each from its own experiment
Molecule,target,assay,test system,setting,how to read,measurement,result
"PhoQ, residues 284 288 289 292 302 303 HSYLQF","PhoP, residues 12 14 15 18 19 GHCSL (Escherichia coli, UniProt P23836)","Sort-seq, measured: YFP reporter",E. coli,"PhoQ-PhoP variant library, with: 10 µM Mg2+","reference: high Mg2+ state, higher = stronger signaling",fold induction,12.7

# Repeated from above (study 1):
Sequence,RBNS enrichment (R)
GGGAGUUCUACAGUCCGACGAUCGUCUUGAACUCCCAACCUCAAGUGAUCUGCCCGCCUCGGCCUCCCAACGUGCUGGGAUUACAGGUGUGAGCCACUACGCCCCGGCCCAACUGGAUGGUUUUUGAUUGAAGUGGAAUUCUCGGGUGCCAA,0.345
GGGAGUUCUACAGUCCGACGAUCUCUCCUGUGGAAGGGUCCCGGAACAUAUGCAUGGCGUCUGCUCGCGGCAGGUGGCAGGUGGUGUUGGGGAUGGUCCUGGAGGGGAUGGCCUGGGCAUACGCCGCCUCCAGUGGAAUUCUCGGGUGCCAA,2.33
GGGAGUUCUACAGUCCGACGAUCCCAUUACUGCAUUGUCAAAUUCCUACUGACGACAUUAUAACUGUACGGGAGCUUAACUUUAUAAGGAAAUGUAUUUUGACACUGAUAUCUUAUUAAAGUAUUCUGAUCCUUGGAAUUCUCGGGUGCCAA,0.412
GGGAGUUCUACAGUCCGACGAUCUCUGAUGAAAUCUCUGAAAAAAAAUAAUAAUUUCACACCAUGGCUGCCCUAAAAGGAUCAUUUUAGUUUCUUUGAUUAACUUUCUCAGAACAGACCUCUCCAUUAUUCAUUGGAAUUCUCGGGUGCCAA,0.471
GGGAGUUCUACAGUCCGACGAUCGAUAGGUAGAUGUGAGUAAAAAGAACAGGAAAAAAUUGCUUCUUUUAUUGGUUUCCAAAGAAACAAACCAAACCAACCAGCUCUUGGAUGUGAAGAUAAAAUAGUGCUUUUGGAAUUCUCGGGUGCCAA,1.07
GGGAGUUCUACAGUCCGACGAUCGCAAGGAUCAGAGCCAGACACCAGGAGUCACAGGCCCCACCCAGGAAGGGCAUUCAGGGCCCCUGGGCACCGCUUCUGUUGAAGCAGGGGCUUCUGGGCCCCUGGGUAUCUGGAAUUCUCGGGUGCCAA,0.323
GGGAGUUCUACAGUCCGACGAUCUUUAUAAGUGCAAUUUAAUUUGUAAAUAGAGUUUGAAUCAAAGUAUCACAAAAUACUGCUUCAAGAUUUAAUUUUAAAUCUGCUAAUUUAAGGGAUAUUGGGAAAAGUUUUGGAAUUCUCGGGUGCCAA,0.455
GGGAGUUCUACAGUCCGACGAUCUUUUUUGAUUGUGUUUCGUAAGAGACAACAUGGCCUCCUAAGGUGCAAUCCUGCCGCUAUAGUGAGCUAAUGUCCUGAAUCCAAAGGCUUCAGAAAAUUGCUUUUGCCUUUGGAAUUCUCGGGUGCCAA,0.382
